Values quoted from earlier work as cited in several papers.
Protocols differ between the studies behind these lines.
UniProt Q15831, sequence (whole entry, looked up): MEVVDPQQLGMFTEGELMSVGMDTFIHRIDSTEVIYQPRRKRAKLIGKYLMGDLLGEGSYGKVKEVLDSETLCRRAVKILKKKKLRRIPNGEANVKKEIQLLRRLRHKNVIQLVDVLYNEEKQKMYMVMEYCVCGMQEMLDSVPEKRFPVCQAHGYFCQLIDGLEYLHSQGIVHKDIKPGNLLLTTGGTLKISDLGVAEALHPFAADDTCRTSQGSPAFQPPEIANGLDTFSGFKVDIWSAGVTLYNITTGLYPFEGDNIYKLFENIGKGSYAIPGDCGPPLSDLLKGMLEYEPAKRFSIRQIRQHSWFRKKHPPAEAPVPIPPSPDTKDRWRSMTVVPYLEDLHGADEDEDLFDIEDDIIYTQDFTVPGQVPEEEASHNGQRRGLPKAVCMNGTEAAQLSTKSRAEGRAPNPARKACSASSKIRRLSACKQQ

CCCCC(=O)N(Cc1ccc(-c2ccccc2-c2nnn[nH]2)cc1)[C@H](C(=O)O)C(C)C — Cmax (plasma; concentration not given): 14800 nM
CCn1c(=O)c(-c2cc(NC(=O)Nc3ccccc3)c(F)cc2Br)cc2cnc(NC)cc21 — Cmax (patients, plasma; 150 mg once daily, median): 833 ng/mL
Cc1nnc(SCC2=C(C(=O)O)N3C(=O)[C@@H](NC(=O)Cn4cnnn4)[C@H]3SC2)s1 — Cmax (plasma; concentration not given, total, literature data): 407000 nM
Nc1cc(C(F)(F)F)c(-c2nc(N3CCOCC3)nc(N3CCOCC3)n2)cn1 — remaining activity (STK11 (Homo sapiens, UniProt Q15831); enzyme activity; 10 µM; relative to: untreated): 92%
COc1ccnc(C[S+]([O-])c2nc3ccc(OC(F)F)cc3[nH]2)c1OC (stereo not drawn) — Cmax (plasma; concentration not given, total, steady state): 6000 nM
CC(C)NCC(O)COc1cccc2ccccc12 (stereo not drawn) — Cmax (plasma; concentration not given, total concentration): 95 nM
CC(C)[C@H]1CC[C@H](C(=O)N[C@H](Cc2ccccc2)C(=O)O)CC1 — Cmax (plasma; concentration not given): 18000 nM
CC[C@H](C)C(=O)O[C@H]1C[C@H](O)C=C2C=C[C@H](C)[C@H](CC[C@@H](O)C[C@@H](O)CC(=O)O)[C@H]21 — Cmax (plasma; concentration not given, total concentration): 120 nM
Cc1nn(C)cc1S(=O)(=O)NC(=O)c1ccc(-n2ccc(OCC(C)(C)C(F)(F)F)n2)nc1N1C[C@@H](C)CC1(C)C — Cmax (non-pregnant cystic fibrosis patients, plasma; dose not given): 9200 ng/mL
CO[C@H]1C[C@@H]2CC[C@@H](C)[C@@](O)(O2)C(=O)C(=O)N2CCCC[C@H]2C(=O)O[C@H]([C@H](C)C[C@@H]2CC[C@@H](OCCO)[C@H](OC)C2)CC(=O)[C@H](C)/C=C(\C)[C@@H](O)[C@@H](OC)C(=O)[C@H](C)C[C@H](C)/C=C/C=C/C=C/1C — Cmax (plasma; concentration not given, total, steady state): 60 nM
c1cnc2cc3c(cc2n1)[C@@H]1CNC[C@H]3C1 — Cmax (plasma; concentration not given, total concentration): 0.0193 nM
C=CC[C@@H]1/C=C(\C)C[C@H](C)C[C@H](OC)[C@H]2O[C@@](O)(C(=O)C(=O)N3CCCC[C@H]3C(=O)O[C@H](/C(C)=C/[C@@H]3CC[C@@H](O)[C@H](OC)C3)[C@H](C)[C@@H](O)CC1=O)[C@H](C)C[C@@H]2OC — Cmax (plasma; concentration not given, total, steady state): 40 nM
CN(C)CCOC1=Cc2ccccc2Sc2ccc(Cl)cc21 — Cmax (plasma; concentration not given, total concentration): 93 nM
CC(C)(CO)c1cc2cc(NC(=O)C3(c4ccc5c(c4)OC(F)(F)O5)CC3)c(F)cc2n1C[C@@H](O)CO — Cmax (non-pregnant cystic fibrosis patients, plasma; dose not given): 7700 ng/mL
O=C(c1ccccc1)c1ccc2n1CCC2C(=O)O (stereo not drawn) — Cmax (plasma; concentration not given): 9500 nM
CC(=O)O[C@@]12CO[C@@H]1C[C@H](O)[C@@]1(C)C(=O)[C@H](O)C3=C(C)[C@@H](OC(=O)[C@H](O)[C@@H](NC(=O)OC(C)(C)C)c4ccccc4)C[C@@](O)([C@@H](OC(=O)c4ccccc4)[C@H]21)C3(C)C — Cmax (plasma; concentration not given, total, steady state): 2970 nM
CC(=O)Oc1ccccc1C(=O)Nc1ncc([N+](=O)[O-])s1 — Cmax (plasma; concentration not given): 31200 nM
O=C1Nc2ccc(Cl)cc2[C@@](C#CC2CC2)(C(F)(F)F)O1 — Cmax (plasma; concentration not given, total, steady state): 12600 nM
COc1cc(N2CCC(N3CCN(C)CC3)CC2)ccc1Nc1ncc(Cl)c(Nc2ccccc2P(C)(C)=O)n1 — Cmax (healthy subjects; 90 mg, single dose alone, itraconazole study): 331 ng/mL
CCCCc1oc2ccccc2c1C(=O)c1cc(I)c(OCCN(CC)CC)c(I)c1 — Cmax (plasma; concentration not given, total, steady state): 3500 nM
C[C@H](NCc1ccc(OCc2ccccc2F)cc1)C(N)=O — Cmax (plasma; concentration not given, total concentration): 3.1 nM

Repeated from above:
O=C(c1ccccc1)c1ccc2n1CCC2C(=O)O (stereo not drawn) — Cmax (plasma; concentration not given): 9500 nM
CO[C@H]1C[C@@H]2CC[C@@H](C)[C@@](O)(O2)C(=O)C(=O)N2CCCC[C@H]2C(=O)O[C@H]([C@H](C)C[C@@H]2CC[C@@H](OCCO)[C@H](OC)C2)CC(=O)[C@H](C)/C=C(\C)[C@@H](O)[C@@H](OC)C(=O)[C@H](C)C[C@H](C)/C=C/C=C/C=C/1C — Cmax (plasma; concentration not given, total, steady state): 60 nM
